Published values pooled from the literature.
Numbered parts are unrelated; each lists some results of a single study.

Study 1
Target: RNA binding protein fox-1 homolog 2, RRM domain, GST-SBP tag (RBFOX2, Homo sapiens, UniProt O43251-10, residues 100-194)
Method: RNA Bind-n-Seq
Form: RNA
Sample: in vitro
Tested at: 365 nM
Notes: natural RNA segment, single round, ends assumed
Relative to: no-protein control
Reading: higher = stronger binding
Measurement: RBNS enrichment (R)
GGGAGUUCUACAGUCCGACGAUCCACUUCUUCAGUGAUUCUUCAGUGAUCCUGAGAGACUAACAGCUGGAGACUCUAGCUGGAGCAGUUGGCUCCUAUUGGCUGUGUUUGCCUGUCUGUCUUCCUGUCACGUGUGGAAUUCUCGGGUGCCAA: 0.572
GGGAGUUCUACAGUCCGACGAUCGACACUGGCUCAUAUUCCUGCAGCCUGGAGGCCGGGUGCUCAGGGCUGACACGUCCACCCCAGUGCACCCACUCUGCUUUGACUGAGCAGACUGGUGAGCAGACUGGUGGUGGAAUUCUCGGGUGCCAA: 0.369
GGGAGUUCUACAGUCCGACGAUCGAUGUUUGCUCCAUAAACUCCACAGUCACUGUUUUCACAUUAAACAUGAAAGCAAAGCAAAACAAAACUUUGUUCGAUUUCUUACUUUACAUAGGAGAAUAUAUUUCCUCUGGAAUUCUCGGGUGCCAA: 0.791
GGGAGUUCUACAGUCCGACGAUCCCUGUGGCCGUGUGGAUGUCGGUAACAGUUGUAUAAAAUAAAUUCUAUUUAUCGCUAUUGUACCCAGGUUGGGCCUGGCUUUGUGUGAACCGUGGCCAGAUUGACCCCAGUGGAAUUCUCGGGUGCCAA: 0.452
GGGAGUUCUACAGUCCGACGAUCUUGUCUUAGACACUGUGGUUGCAAAACCCACGGAAAGCCUCAUUUGUGUGGAAAGUCAGAGGAAAAAUGAUCCAGUGGACACUUGGGGAUUAUCUGUCAUUCAAGAUCCUUGGAAUUCUCGGGUGCCAA: 0.43
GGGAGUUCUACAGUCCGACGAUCUAUGGUUUACUCACUUAGGGAAAGGGCUUAGGUGUUAGGCUGUGGGCUGCUUCUCCCUAACCAUCCAUUGUGCAGACUUCUCAUCUAAAAAGGUUGGUGGCUUUUGCUUGUGGAAUUCUCGGGUGCCAA: 0.541
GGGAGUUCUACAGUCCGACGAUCUGCCACCCAGAGCCUACCGGCACCAGCACAGGGUUCACACUACAGAGCAUCUGCGUGUGUUUGAGUUGGUUUCUGCUUCCGUUUCUGUUUUUGUUCUUUUUCUGAAGGUGUGGAAUUCUCGGGUGCCAA: 0.462

Study 2
Target: Histone acetyltransferase KAT6A, winged helix 1, GST fusion (KAT6A, Homo sapiens, UniProt Q92794, residues 1-85)
Method: protein binding microarray
Form: double-stranded DNA, one strand shown
Sample: in vitro
Tested at: not given
Notes: 8-mer, flanks averaged, mean of 2 arrays, mostly near background
Relative to: not given
Reading: higher = stronger binding
Measurement: E-score
Residues (chain): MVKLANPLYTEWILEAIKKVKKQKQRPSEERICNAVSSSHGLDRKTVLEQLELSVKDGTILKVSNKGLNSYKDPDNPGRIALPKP
TATCCAAA: -0.271
CACCACGA: -0.231
AATTCCGA: -0.0812
CGATGGCC: 0.0961
GAAATGCC: 0.133

Study 3
Target: Hepatocyte nuclear factor 3-beta, forkhead domain (FOXA2, Homo sapiens, UniProt Q9Y261, residues 142-269)
Method: protein-binding microarray
Form: double-stranded DNA, one strand shown
Sample: in vitro
Tested at: not given
Notes: k-mer, scored over probes, only values ≥0.25
Reading: higher = stronger binding
Measurement: E-score
Target sequence (chain): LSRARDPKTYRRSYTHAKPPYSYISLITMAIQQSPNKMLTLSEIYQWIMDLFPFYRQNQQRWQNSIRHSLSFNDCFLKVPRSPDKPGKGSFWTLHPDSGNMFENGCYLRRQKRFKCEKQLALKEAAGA
ATTGACGA: 0.259
AATCGATA: 0.253
ACATTATC: 0.295
TTACCAAA: 0.285
TATGTGAA: 0.277
ACATTTCA: 0.257
GTGATATA: 0.266
CAGTAATG: 0.258
ATATACGG: 0.281

Other studies, line by line
PhoQ, residues 284 288 289 292 302 303 GASLAW  fold induction (PhoP, residues 12 14 15 18 19 NHTVL (Escherichia coli, UniProt P23836); Sort-seq, refers to: YFP reporter; E. coli; PhoQ-PhoP variant library, with: 10 µM Mg2+; relative to: high Mg2+ state, higher = stronger signaling): 0.722

Excerpt of the above (study 2):
TATCCAAA: -0.271
CACCACGA: -0.231
AATTCCGA: -0.0812
CGATGGCC: 0.0961
